Results pooled from the literature.
Each line is one published result; not all experiments were run side by side.

SMILES | system | conditions | CL/F
CC[C@H](C)[C@@H]1NC(=O)[C@H](CCCNC(=N)N)NC(=O)[C@H](CC(=O)O)NC(=O)[C@H](CC(C)C)NC(=O)[C@H](CCCCN)NC(=O)[C@H](CC(C)C)NC(=O)CNC(=O)[C@H](Cc2ccccc2)NC(=O)[C@@H](NC(=O)CNC(=O)[C@H](CCCCN)NC(=O)[C@H](CO)NC(=O)[C@H](CC(C)C)NC(=O)CNC(=O)[C@H](CCCCN)NC(=O)[C@H](CCCCN)NC(=O)[C@H](CC(N)=O)NC(=O)[C@H](C)NC(=O)CNC(=O)[C@H](CCCCN)NC(=O)[C@H](Cc2ccc(O)cc2)NC(=O)[C@H](CCCCN)NC(=O)[C@H](CCCNC(=N)N)NC(=O)[C@H](C)NC(=O)[C@H](CC(N)=O)NC(=O)[C@@H]2CCCN2C(=O)[C@H](Cc2c[nH]cn2)NC(=O)[C@H](CCC(=O)O)NC(=O)[C@H](CCC(N)=O)NC(=O)CNC(=O)[C@@H]2CCCN2)CSSC[C@@H](C(=O)O)NC(=O)CNC(=O)[C@H](CC(C)C)NC(=O)CNC(=O)[C@H](CO)NC(=O)[C@H](CCSC)NC(=O)[C@H](CO)NC(=O)CNC1=O | human, plasma | subcutaneous, 15 µg/kg once daily, week 26 | 85.2 mL/min/kg
Cc1cccc(C)c1OCC(=O)N[C@@H](Cc1ccccc1)[C@@H](O)C[C@H](Cc1ccccc1)NC(=O)[C@H](C(C)C)N1CCCNC1=O | human, HIV+/HCV−, plasma | total drug, steady state, median, added: lopinavir/ritonavir twice daily | 0.917 mL/min/kg
CNC(=O)c1ccc(-c2cnc3ncc(Cc4ccc5ncccc5c4)n3n2)cc1F | healthy human subjects, plasma | oral, 200 mg, geometric mean, alone | 37.9 L/h
CC(C)NC[C@@H](C(=O)N1CCN(c2ncnc3c2[C@H](C)C[C@H]3O)CC1)c1ccc(Cl)cc1 | human, hepatic impairment Severe (Child-Pugh), plasma | oral, 100 mg single, geometric mean | 109 L/h
CCOc1ccc(Cc2cc([C@]34OC[C@](CO)(O3)[C@@H](O)[C@H](O)[C@H]4O)ccc2Cl)cc1 | human, plasma | oral, 15 mg single dose, geometric mean | 10.7 L/h
CO[C@H]1C[C@@H]2CC[C@@H](C)[C@@](O)(O2)C(=O)C(=O)N2CCCC[C@H]2C(=O)O[C@H]([C@H](C)C[C@@H]2CC[C@@H](OCCO)[C@H](OC)C2)CC(=O)[C@H](C)/C=C(\C)[C@@H](O)[C@@H](OC)C(=O)[C@H](C)C[C@H](C)/C=C/C=C/C=C/1C | human, plasma | oral, 30 mg, added: sunitinib 50 mg daily | 4.21 mL/min/kg
Nc1cccc2c1C(=O)N(C1CCC(=O)NC1=O)C2=O (stereo not drawn) | healthy humans, plasma | 4 mg, geometric mean, added: fluvoxamine | 3.4 L/h
CCOc1cc([C@@H](CS(C)(=O)=O)N2C(=O)c3cccc(NC(C)=O)c3C2=O)ccc1OC | healthy human | oral, 30 mg single dose, added: rifampicin 600 mg oral once daily, dose 14 | 36.2 L/h
COc1cc2ncnc(Nc3ccc(F)c(Cl)c3)c2cc1NC(=O)/C=C/CN1CCCCC1 | human, severe hepatic impairment | oral, 30 mg single, geometric mean | 40.8 L/h
CCn1c(=O)c2c(nc(/C=C/c3ccc(OC)c(OC)c3)n2C)n(CC)c1=O | healthy human, plasma | oral, 40 mg single dose, arithmetic mean, added: rifampin 600 mg/day steady state | 20.6 L/h
CCCC[C@H](NC(C)=O)C(=O)N[C@H]1CCC(=O)NC[C@@H](C(=O)N[C@@H](Cc2c[nH]c3ccccc23)C(N)=O)NC(=O)[C@H](CCCNC(=N)N)NC(=O)[C@@H](Cc2ccccc2)NC(=O)[C@H](Cc2c[nH]cn2)NC1=O | healthy human, both sexes, plasma | subcutaneous, 3.0 mg once daily, day 1, geometric mean | 17.7 L/h
Cc1nc2cccc(N)c2c(=O)n1C1CCC(=O)NC1=O (stereo not drawn) | healthy adult human | oral, 3 mg, geometric mean, added: itraconazole 200 mg once daily | 4.24 L/h
CCc1cc(/C(C)=N/OCc2ccc(C3CCCCC3)c(C(F)(F)F)c2)ccc1CN1CC(C(=O)O)C1 | healthy human CYP2C9*3/*3 | 0.25 mg single dose, geometric mean | 0.9 L/h
CC[C@H](C)[C@H](NC(=O)[C@H](CC(C)C)NC(=O)[C@H](Cc1c[nH]c2ccccc12)NC(=O)[C@H](C)NC(=O)[C@@H](NC(=O)[C@H](Cc1ccccc1)NC(=O)[C@H](CC(=O)O)NC(=O)[C@H](CCCNC(=N)N)NC(=O)[C@H](C)NC(=O)[C@H](C)NC(=O)[C@H](CC(C)C)NC(=O)[C@H](C)NC(=O)[C@H](CC(=O)O)NC(=O)[C@H](CC(C)C)NC(=O)[C@@H](NC(=O)[C@@H](NC(=O)[C@H](C)NC(=O)[C@H](CC(C)C)NC(=O)[C@H](CCC(=O)O)NC(=O)[C@H](CO)NC(=O)[C@H](CO)NC(=O)[C@H](Cc1ccccc1)NC(=O)[C@@H](NC(=O)CNC(=O)[C@H](CCC(=O)O)NC(=O)CNC(=O)[C@@H](N)Cc1cnc[nH]1)[C@@H](C)O)[C@@H](C)O)[C@@H](C)CC)[C@@H](C)CC)C(=O)N[C@@H](C)C(=O)N[C@H](C(=O)N[C@@H](CCCCN)C(=O)N[C@H](C(=O)N[C@H](C(=O)N[C@@H](CC(=O)O)C(=O)N[C@@H](CCCCN)C(=O)N[C@@H](CCCCN)C(=O)N[C@@H](CCCCN)C(=O)N[C@@H](CCCCN)C(=O)N[C@@H](CCCCN)C(=O)N[C@@H](CCCCN)C(N)=O)[C@@H](C)O)[C@@H](C)CC)[C@@H](C)O | healthy humans, plasma | subcutaneous, 10 mg glepaglutide once weekly, 6 doses, day 36, geometric mean | 1600 L/h
C#C[C@]1(O)CC[C@H]2[C@@H]3CCc4cc(O)ccc4[C@H]3CC[C@@]21C | human female, plasma | oral, 35 µg, day 1, added: norethindrone 1 mg | 35.5 L/h

Some of these lines once more:
SMILES | system | conditions | CL/F
CCc1cc(/C(C)=N/OCc2ccc(C3CCCCC3)c(C(F)(F)F)c2)ccc1CN1CC(C(=O)O)C1 | healthy human CYP2C9*3/*3 | 0.25 mg single dose, geometric mean | 0.9 L/h
CC[C@H](C)[C@H](NC(=O)[C@H](CC(C)C)NC(=O)[C@H](Cc1c[nH]c2ccccc12)NC(=O)[C@H](C)NC(=O)[C@@H](NC(=O)[C@H](Cc1ccccc1)NC(=O)[C@H](CC(=O)O)NC(=O)[C@H](CCCNC(=N)N)NC(=O)[C@H](C)NC(=O)[C@H](C)NC(=O)[C@H](CC(C)C)NC(=O)[C@H](C)NC(=O)[C@H](CC(=O)O)NC(=O)[C@H](CC(C)C)NC(=O)[C@@H](NC(=O)[C@@H](NC(=O)[C@H](C)NC(=O)[C@H](CC(C)C)NC(=O)[C@H](CCC(=O)O)NC(=O)[C@H](CO)NC(=O)[C@H](CO)NC(=O)[C@H](Cc1ccccc1)NC(=O)[C@@H](NC(=O)CNC(=O)[C@H](CCC(=O)O)NC(=O)CNC(=O)[C@@H](N)Cc1cnc[nH]1)[C@@H](C)O)[C@@H](C)O)[C@@H](C)CC)[C@@H](C)CC)C(=O)N[C@@H](C)C(=O)N[C@H](C(=O)N[C@@H](CCCCN)C(=O)N[C@H](C(=O)N[C@H](C(=O)N[C@@H](CC(=O)O)C(=O)N[C@@H](CCCCN)C(=O)N[C@@H](CCCCN)C(=O)N[C@@H](CCCCN)C(=O)N[C@@H](CCCCN)C(=O)N[C@@H](CCCCN)C(=O)N[C@@H](CCCCN)C(N)=O)[C@@H](C)O)[C@@H](C)CC)[C@@H](C)O | healthy humans, plasma | subcutaneous, 10 mg glepaglutide once weekly, 6 doses, day 36, geometric mean | 1600 L/h
